Measured values pooled from the literature.
Compare with care: the assays were run in different laboratories. ± gives the spread as reported.
HDAC9: Histone deacetylase 9 (HDAC9, Homo sapiens, UniProt Q9UKV0)
HDAC6: Protein deacetylase HDAC6 (HDAC6, Homo sapiens, UniProt Q9UBN7)
P4HB: Protein disulfide-isomerase (P4HB, Homo sapiens, UniProt P07237)
Gria1/Gria2: Glutamate receptor AMPA 1/2 (Gria1/Gria2, Rattus norvegicus, UniProt P19490+P19491)
bglA: bglA (Thermotoga maritima, UniProt Q08638)
GBA1 R534H: Lysosomal acid glucosylceramidase (GBA1, Homo sapiens, UniProt P04062, R534H)

Cc1nc2c(F)cc(-c3nc(Nc4ccc(CNC(=O)CCCCCCC(=O)NO)cc4)ncc3F)cc2n1C(C)C gave an IC50 of over 10 µM (HDAC9; enzyme activity, inhibitor).
O=C(CCc1ccc(CNC(C(=O)O)C2CCCCC2)cn1)NO (stereo not shown) has an IC50 of 0.49 µM (HDAC6; enzyme activity, inhibitor).
With O=C(/C=C/c1cc2c(cc1Br)OCO2)c1ccc(Br)cc1 the IC50 was 66 µM (P4HB; enzyme activity, inhibitor).
With CC(=O)O[C@H]1OC[C@@H]2C=C([C@@]3(C)CCCC(C)(C)C3)CC[C@H]12 the IC50 was under 0.5 µM (PPIF (Homo sapiens, UniProt P30405); enzyme activity, inhibitor).
COCCN(C)CC(=O)NC(Cc1ccc(-c2ccccc2)cc1)B(O)O (stereo not shown) has an IC50 of over 10 µM (PSMB6/PSMB7 (Homo sapiens, UniProt P28072+Q99436); β1c caspase-like activity, inhibitor; constitutive proteasome, with: Z-LLE-AMC).
With C[C@@H](O)[C@@H]1NC(=O)[C@H](CCCCN)NC(=O)[C@@H](Cc2c[nH]c3ccccc23)NC(=O)[C@H](Cc2ccc(NC(N)=O)cc2)NC(=O)[C@H](NC(=O)[C@@H](N)Cc2ccc(Cl)cc2)CSSC[C@@H](C(=O)N[C@@H](Cc2ccc3ccccc3c2)C(N)=O)NC1=O the IC50 was over 1 µM (SSTR1 (Homo sapiens, UniProt P30872); ligand displacement, radioligand).
The IC50 of C[C@@H](Nc1nc2c(cnn2C(C)(C)C)c(=O)n1Cc1cccc(F)c1)c1ccc(Cl)cc1 is reported as over 10 µM (PDE3A (Homo sapiens, UniProt Q14432); enzyme activity, inhibitor).
CCN(CC)CC(=O)Nc1cccc(-n2cc(-c3ccc4ccc(-c5cn(-c6cccc(NC(=O)CN(CC)CC)c6)nn5)cc4c3)nn2)c1 has an IC50 of over 10 µM (FGFR3 (Homo sapiens, UniProt P22607); enzyme activity, inhibitor).
The IC50 of CC1(C)CCC(CN2CCN(c3ccc(C(=O)NS(=O)(=O)c4ccc(NCC5CCOCC5)c([N+](=O)[O-])c4)c(Oc4cnc5[nH]ccc5c4)c3)CC2)=C(c2ccc(Cl)cc2)C1 is reported as over 10 µM (Bcl-2-related protein A1 (Homo sapiens, UniProt Q16548); binding, inhibitor, TR-FRET competition; with: BAX-derived peptide).
For O=C(CN1CN(c2ccccc2)C2(CCN(C(=O)c3ccc4[nH]ncc4c3)CC2)C1=O)NCC(F)(F)F, the IC50 was 0.015 µM (DDR1 (Homo sapiens, UniProt Q08345); ligand displacement).
With CC(C)C[C@H](NC(=O)[C@H](Cc1ccc(CN)cc1)NC(=O)[C@H](Cc1ccccc1)N=[N+]=[N-])C(=O)N[C@@H](CC1CCC2CCCCC2C1)C(=O)[C@@]1(C)CO1 (stereo partly shown) the IC50 was over 10 µM (PSMB8 (Homo sapiens, UniProt P28062); enzyme activity, inhibitor; lysate).
With Cc1cnc(Nc2ccc3c(c2)CCN(C(=O)/C=C/C(=O)C2CCC(C)CC2)C3)nc1-c1cnn(C(C)C)c1 (stereo not shown) the IC50 was over 0.03 µM (JAK3 (Homo sapiens, UniProt P52333); enzyme activity, inhibitor, ADP detection).
For CCCCCCCCCCCCCCN(O)C(=O)CCCCC[C@@H]1NC(=O)[C@H]([C@@H](C)CC)NC(=O)[C@H](Cc2ccccc2C(F)(F)F)NC(=O)CCSCc2cccc(n2)CSCCCNC1=O, the IC50 was over 30 µM (HDAC9; enzyme activity, inhibitor, fluorogenic).
CCCC(=O)OC1CCC2(C)C(CCC3(C)C2CC=C2C4C(C)C(C)CCC4(C(=O)O)CCC23C)C1(C)C (stereo not shown) has an IC50 of over 100 µM (UGT1A6 (Homo sapiens, UniProt P19224); enzyme activity, inhibitor).
The IC50 of C=C[C@H]1[C@H](O[C@@H]2O[C@H](COC(=O)/C=C/c3ccc(O)cc3)[C@@H](O)[C@H](O)[C@H]2O)OC=C(C(=O)O)[C@H]1CC(=O)O is reported as 119 ± 2.34 µM (ACE (Oryctolagus cuniculus, UniProt P12822); enzyme activity).
For O=C(NO)c1cncc(OS(=O)(=O)Oc2ccc(Oc3ccccc3)cc2)c1, the IC50 was 0.603 µM (HDAC6; enzyme activity, inhibitor, fluorescence).
CC[C@H](C)C(=O)O[C@H]1C[C@@H](C)C=C2C=C[C@H](C)[C@H](CC[C@@H]3CC=CC(=O)O3)[C@H]21 gave an IC50 of 0.95 µM (CFTR (Homo sapiens, UniProt P13569); apical chloride current, inhibitor; T84, basolaterally permeabilized; with: forskolin, phosphatase inhibitors 1 mM).
CN(C)c1ccc(C(=O)/C=C/c2ccc(O)cc2)cc1 gave an IC50 of 64 µM (P4HB; enzyme activity, inhibitor).
O=[N+]([O-])c1ccc(O[C@@H]2C=C(CO)[C@@H](O)[C@H](O)[C@H]2O)c([N+](=O)[O-])c1 has an IC50 of 0.17 ± 0.03 µM (GBA1 (Homo sapiens, UniProt P04062); with: resorufin β-glucoside at Km).
For Nc1ccc(-c2ccc(F)cc2)cc1NC(=O)C1CCOCC1, the IC50 was over 33.3 µM (HDAC6; enzyme activity, inhibitor).
With COc1ccc(/C=C/C(=O)c2ccc(Br)cc2)cc1OC the IC50 was over 100 µM (P4HB; enzyme activity, inhibitor).
The IC50 of C[C@](C(=O)NC1CCOCC1)(c1cncnc1)N(C(=O)[C@H](F)Cl)c1ccc(OC(F)(F)Cl)cc1 is reported as 0.014 µM (Replicase polyprotein 1ab, main protease (rep, Human coronavirus NL63, UniProt P0C6X5); enzyme activity, inhibitor).
For COC(=O)Cc1cc2c(cc1C(=O)c1ccccc1Cl)OCO2, the IC50 was 5.25 µM (Gria1/Gria2; ion current, antagonist, patch clamp).
Cc1nn(-c2cccc(N)c2)c(=O)c2cnc(Nc3ccc(N4CCNCC4)cc3)nc12 gave an IC50 of over 10 µM (SPHK2 (Homo sapiens, UniProt Q9NRA0); kinase activity, inhibitor, SelectScreen kinase profiling).
CCCCc1nc2c([nH]1)[C@H](O)[C@@H](O)[C@H](O)[C@H]2O gave an IC50 of over 100 µM (bglA; enzyme activity, inhibitor; pH 6.8, with preincubation).
O=C(O)Cc1cc2c(cc1C(=O)c1ccc(Cl)cc1Cl)OCO2 gave an IC50 of 3.89 µM (Gria1/Gria2; ion current, antagonist, patch clamp).
OC[C@@H]1[C@@H](O)[C@H](O)[C@@H](O)CN1CCCCCOCc1ccc(-c2cncnc2)cc1 gave an IC50 of 10 µM (GBA1 R534H; inhibitor, 4MU-β-D-glucopyranoside; with: 4MU-β-D-glucopyranoside).
OC[C@@H]1[C@@H](O)[C@H](O)[C@@H](O)[C@H]2O[C@@H]12 has an IC50 of over 100 µM (bglA; enzyme activity, inhibitor; pH 6.8, with preincubation).
For CC(C)(C)CCOCCCCCN1C[C@H](O)[C@@H](O)[C@H](O)[C@H]1CO, the IC50 was 4 µM (GBA1 R534H; inhibitor, 4MU-β-D-glucopyranoside; with: 4MU-β-D-glucopyranoside).
O=C(O)Cc1cc2c(cc1C(=O)c1cccc(Cl)c1)OCO2 gave an IC50 of 4.19 µM (Gria1/Gria2; ion current, patch clamp).
The IC50 of CC(C)CCC[C@@H](C)[C@H]1CC[C@H]2[C@@H]3CC=C4C[C@@H](OCCCCCN5C[C@H](O)[C@@H](O)[C@H](O)[C@@H]5CO)CC[C@]4(C)[C@H]3CC[C@]12C is reported as 15 µM (GBA1 R534H; inhibitor, 4MU-β-D-glucopyranoside; with: 4MU-β-D-glucopyranoside).
COc1cc(/C=C/C(=O)c2ccc(S(=O)(=O)N3CCCC3)cc2)cc(OC)c1O has an IC50 of 74 µM (P4HB; enzyme activity, inhibitor).
For CC(C)(C)COCCCCCN1C[C@H](O)[C@@H](O)[C@H](O)[C@H]1CO, the IC50 was 6.2 µM (GBA1 R534H; inhibitor, 4MU-β-D-glucopyranoside; with: 4MU-β-D-glucopyranoside).
The IC50 of N#Cc1c(-c2ccco2)cc(-c2cccs2)[nH]c1=O is reported as 13.4 µM (Protein FosB, ΔFosB isoform (Fosb, Mus musculus, UniProt P13346); DNA binding, fluorescence polarization; with: 1 mM TCEP).
For OC[C@H]1[C@@H](O)[C@H](O)[C@@H](O)CN1CCCCCOCc1ccccc1, the IC50 was 10 µM (GBA1 R534H; inhibitor, 4MU-β-D-glucopyranoside; with: 4MU-β-D-glucopyranoside).
The IC50 of Fc1ccc(Nc2nc(NC3CCCCC3)c3ccccc3n2)cc1F is reported as 1.26 µM (ADRB2 (Homo sapiens, UniProt P07550, I153L); β-arrestin2 recruitment, antagonist, BRET; HEK293; mutant I153L, with: isoprenaline 1 µM).
With Cc1ccc(C(=O)/C=C/c2ccc(OCC(=O)O)cc2)cc1C the IC50 was 39 µM (P4HB; enzyme activity, inhibitor).
With O=C(O)Cc1cc2c(cc1C(=O)c1ccccc1)OCO2 the IC50 was 5.5 µM (Gria1/Gria2; ion current, antagonist, patch clamp).
With CCOc1ccc(/C=C/C(=O)c2ccc3c(c2)OCCO3)cc1 the IC50 was 52 µM (P4HB; enzyme activity, inhibitor).
For COC(=O)Cc1cc2c(cc1C(=O)c1ccccc1)OCO2, the IC50 was 6.03 µM (Gria1/Gria2; ion current, antagonist, patch clamp).
CCCCCOCCCCCN1C[C@H](O)[C@@H](O)[C@H](O)[C@H]1CO has an IC50 of 705 µM (GBA1 R534H; inhibitor, 4MU-β-D-glucopyranoside; with: 4MU-β-D-glucopyranoside).
COC(C(N)=O)C(NC(=O)c1ccc(NC(=O)c2ccc(C#N)cc2)cc1)C(=O)Nc1ccc(C(=O)Nc2ccc(C(=O)Nc3ccc(C(=O)O)cc3)c(O)c2OC(C)C)cc1 (stereo not shown) has an IC50 of 0.448 µM (DNA gyrase (gyrA/gyrB, Escherichia coli, UniProt P0AES4+P0AES6); DNA supercoiling, inhibitor, gel-based).
The IC50 of O=C(NO)c1cncc(OS(=O)(=O)Oc2ccccc2-c2ccccc2)c1 is reported as 0.249 µM (HDAC6; enzyme activity, inhibitor, fluorescence).
Fc1cncc(-c2ccc3[nH]c4ncnc(N[C@H]5CC[C@H](N6CCOCC6)CC5)c4c3c2)c1 gave an IC50 of 0.0118 µM (IRAK4 (Homo sapiens, UniProt Q9NWZ3); enzyme activity, inhibitor, AlphaScreen; with: ATP 200 µM).
Cc1ncc(C(=O)N[C@@H](CCC(=O)O)C(=O)N[C@@H](Cc2ccc3ccccc3c2)C(=O)N[C@@H](CC(C)C)C(=O)NC2CC2c2ccccc2)cn1 (stereo partly shown) gave an IC50 of 62.8 µM (APC (Homo sapiens, UniProt P25054); ligand displacement, FP).
OC[C@H]1[C@@H](O)[C@H](O)[C@@H](O)CN1CCCCCOCc1ccc(-c2ccccc2)cc1C(F)(F)F has an IC50 of 5 µM (GBA1 R534H; inhibitor, 4MU-β-D-glucopyranoside; with: 4MU-β-D-glucopyranoside).
CC(C)(C)OC(=O)N1CCN(c2ccc3c(O)c(C(=O)NCc4ccc(C#N)nc4)ncc3n2)CC1 has an IC50 of over 10 µM (KDM3B (Homo sapiens, UniProt Q7LBC6); enzyme activity, inhibitor, AlphaScreen).
For OC[C@@H]1[C@@H](O)[C@H](O)[C@@H](O)CN1CCCCCOCC1CCCCC1, the IC50 was 1.5 µM (GBA1 R534H; inhibitor, 4MU-β-D-glucopyranoside; with: 4MU-β-D-glucopyranoside).
The IC50 of Cc1nn(C)c(C)c1/C=C/C(=O)N1CCC[C@H](Cc2ccc(Nc3ccccn3)nn2)C1 is reported as 0.112 µM (CDK6 (Homo sapiens, UniProt Q00534); enzyme activity, inhibitor, ADP detection).
